Assay results collected from several papers.
Each line is one published result; not all experiments were run side by side. ± marks the error that the study gave.
Organism: Leishmania infantum

SMILES	test	test system	conditions	how to read	endpoint	result
CCc1ncn(CC(c2c[nH]c3ccc(C)cc23)c2c[nH]c3ccc(C)cc23)c1C(=O)OC	viability, MTS	human clinical isolate promastigote	72 h		IC50	8.6 µM
Cc1ncnc2c1c(C#CC(C)C)cn2[C@@H]1O[C@H](CO)[C@@H](O)[C@H]1O	parasite growth, imaging	mouse Macrophage	5 days, intracellular, amastigote		EC50	> 64 µM
N=C(N)c1ccc(OCCCCCOc2ccc(C(=N)N)cc2)cc1	viability, MTS	human clinical isolate promastigote	72 h		IC50	1.5 µM
CCCCCCCCCCCCCCCCOP(=O)([O-])OCC[N+](C)(C)C	parasite growth		72 h, promastigote		EC50	5.9 µM
Cc1ncnc2c1c(CC(C)C)cn2[C@@H]1O[C@H](CO)[C@@H](O)[C@H]1O	parasite growth, imaging	mouse Macrophage	5 days, intracellular, amastigote		EC50	> 64 µM
c1cnc(NCCCn2ccnc2)cn1		J774.2 macrophages	IC25, 240 h, day 10	baseline: untreated	infection inhibition	44%
CCc1cn([C@@H]2O[C@H](CO)[C@@H](O)[C@H]2O)c2ncncc12	parasite growth, imaging	mouse Macrophage	5 days, intracellular, amastigote		EC50	> 64 µM
c1ccc2c(Cc3c[nH]c4ccccc34)c[nH]c2c1	viability, MTS	human clinical isolate, promastigote	20 µM, 72 h		inhibition	22%
O=C(O)c1ccc(-c2cc3cccc([N+](=O)[O-])c3[nH]c2=O)cc1		axenic amastigotes	48 h		IC50	inactive
CCOC(=O)c1c(C#N)c(-c2c[nH]c3ccccc23)n(NC(=O)OC(C)(C)C)c1C	parasite growth		20 µM, 72 h, promastigote		inhibition	-31.6%
CCOC(=O)c1c(C)ncn1CC(c1cn(C)c2ccc([N+](=O)[O-])cc12)c1cn(C)c2ccc([N+](=O)[O-])cc12	viability, MTS	human clinical isolate promastigote	72 h		IC50	5.3 µM
COc1cc([C@@H]2c3cc4c(cc3[C@@H](O)[C@H]3COC(=O)[C@H]23)OCO4)cc(OC)c1OC	parasite growth	mouse Splenocyte	48 h, intracellular, amastigote		EC50	> 100 µM
C/C=C(\CO)C(=O)NCc1ccc2c(c1)C(=O)CC(C)(C)O2		bone marrow-derived macrophages, intracellular amastigotes	24 h		IC50	5 to 10 µM
Cc1ncnc2c1c(C(C)C)cn2[C@@H]1O[C@H](CO)[C@@H](O)[C@H]1O	parasite growth, imaging	mouse Macrophage	5 days, intracellular, amastigote		EC50	22.6 µM
COC(=O)c1c(C)ncn1CC(c1c[nH]c2ccccc12)c1c[nH]c2ccccc12	viability, MTS	human clinical isolate promastigote	72 h		IC50	8.1 µM
Cc1ncnc2c1c(C1CCCC1)cn2[C@@H]1O[C@H](CO)[C@@H](O)[C@H]1O	parasite growth, imaging	mouse Macrophage	5 days, intracellular, amastigote		EC50	> 64 µM
CC1(C)CC(=O)c2cc(CNC(=O)C/C=C/c3ccccc3)ccc2N1		bone marrow-derived macrophages, intracellular amastigotes	24 h		IC50	> 10 µM
CCc1cn([C@@H]2O[C@H](CO)[C@@H](O)[C@H]2O)c2ncnc(OC)c12	parasite growth, imaging	mouse Macrophage	5 days, intracellular, amastigote		EC50	> 64 µM
COc1ccc(S(=O)(=O)Nc2cc(C#N)ccc2OS(=O)(=O)c2ccc(OC)cc2)cc1		U-937 macrophages, intracellular amastigotes		baseline: IC50 HeLa over IC50 amastigotes	selectivity index	3.45
C/C=C/C(=O)NCc1ccc2c(c1)C(=O)CC(C)(C)N2		bone marrow-derived macrophages, intracellular amastigotes	24 h		IC50	> 10 µM
C[C@@H]1[C@H](O)[C@@H](C)/C=C/C=C/C=C/C=C/C=C/C=C/C=C/[C@H](O[C@@H]2O[C@H](C)[C@@H](O)[C@H](N)[C@@H]2O)C[C@@H]2O[C@](O)(C[C@@H](O)C[C@@H](O)[C@H](O)CC[C@@H](O)C[C@@H](O)CC(=O)O[C@H]1C)C[C@H](O)[C@H]2C(=O)O		intracellular amastigotes, ex vivo mouse splenic explants	72 h		EC50	0.32 ± 0.05 µM
C/C=C(\CO)C(=O)NCc1ccc2c(c1)C(=O)CC(C)(C)N2		bone marrow-derived macrophages, intracellular amastigotes	24 h		IC50	5 to 10 µM
CCCCCCCCCCCCCCCCOP(=O)([O-])OCC[N+](C)(C)C	viability, MTS	human clinical isolate promastigote	72 h		IC50	1.2 µM
Cc1ncnc2c1c(F)cn2[C@@H]1O[C@H](CO)[C@@H](O)[C@H]1O	parasite growth, imaging	mouse Macrophage	5 days, intracellular, amastigote		EC50	< 0.25 µM
CCCCCCCCNCc1ccc2c(c1)C(=O)CC(C)(C)O2		bone marrow-derived macrophages, intracellular amastigotes	24 h		IC50	24.6 ± 0.4 µM

Some of these lines once more:
SMILES	test	test system	conditions	how to read	endpoint	result
CCOC(=O)c1c(C)ncn1CC(c1cn(C)c2ccc([N+](=O)[O-])cc12)c1cn(C)c2ccc([N+](=O)[O-])cc12	viability, MTS	human clinical isolate promastigote	72 h		IC50	5.3 µM
COc1cc([C@@H]2c3cc4c(cc3[C@@H](O)[C@H]3COC(=O)[C@H]23)OCO4)cc(OC)c1OC	parasite growth	mouse Splenocyte	48 h, intracellular, amastigote		EC50	> 100 µM
